Published values gathered from unrelated publications.
Lines come from different studies, so protocols differ. ± gives the spread as reported.
Sequence of UniProt P08183 (whole entry, looked up): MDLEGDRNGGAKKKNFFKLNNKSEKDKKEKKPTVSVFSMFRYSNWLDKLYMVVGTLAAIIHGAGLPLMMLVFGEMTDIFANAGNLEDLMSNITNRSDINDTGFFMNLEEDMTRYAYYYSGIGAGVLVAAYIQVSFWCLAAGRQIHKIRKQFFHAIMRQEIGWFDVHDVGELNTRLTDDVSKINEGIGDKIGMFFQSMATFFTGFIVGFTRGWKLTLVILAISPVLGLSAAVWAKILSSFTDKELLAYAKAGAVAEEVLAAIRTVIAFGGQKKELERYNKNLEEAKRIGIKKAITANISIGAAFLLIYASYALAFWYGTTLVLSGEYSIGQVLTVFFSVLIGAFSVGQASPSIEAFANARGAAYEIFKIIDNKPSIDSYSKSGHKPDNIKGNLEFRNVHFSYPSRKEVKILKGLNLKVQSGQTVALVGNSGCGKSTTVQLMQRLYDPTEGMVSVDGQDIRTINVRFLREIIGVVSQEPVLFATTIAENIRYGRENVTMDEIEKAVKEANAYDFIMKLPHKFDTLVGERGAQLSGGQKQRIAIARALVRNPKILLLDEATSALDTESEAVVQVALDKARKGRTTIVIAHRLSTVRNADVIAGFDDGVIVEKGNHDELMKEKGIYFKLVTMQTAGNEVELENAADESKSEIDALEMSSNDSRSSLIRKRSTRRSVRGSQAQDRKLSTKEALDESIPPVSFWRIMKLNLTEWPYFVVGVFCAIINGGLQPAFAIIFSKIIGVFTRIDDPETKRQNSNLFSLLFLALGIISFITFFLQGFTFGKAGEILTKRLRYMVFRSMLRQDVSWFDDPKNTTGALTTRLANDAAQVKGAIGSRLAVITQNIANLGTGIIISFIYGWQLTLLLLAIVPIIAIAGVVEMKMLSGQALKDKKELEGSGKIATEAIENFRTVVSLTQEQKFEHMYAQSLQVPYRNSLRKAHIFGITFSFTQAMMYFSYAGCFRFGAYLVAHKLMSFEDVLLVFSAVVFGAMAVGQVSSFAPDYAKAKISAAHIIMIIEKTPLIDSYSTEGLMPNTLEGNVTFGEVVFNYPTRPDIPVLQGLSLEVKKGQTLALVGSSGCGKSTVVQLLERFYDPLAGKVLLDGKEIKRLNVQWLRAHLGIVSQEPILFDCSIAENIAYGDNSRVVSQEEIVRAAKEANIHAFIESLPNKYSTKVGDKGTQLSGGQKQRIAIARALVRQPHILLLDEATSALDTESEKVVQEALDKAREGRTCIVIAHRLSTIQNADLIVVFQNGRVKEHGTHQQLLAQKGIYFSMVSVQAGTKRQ

| Compound | target or system | test | test system | conditions | how to read | measurement | result |
| --- | --- | --- | --- | --- | --- | --- | --- |
| COc1ccc2c(c1OC)C(=O)c1c(cc(C)c(O)c1OC)C2=O | HepaRG co-cultured with HK-2 | MTT |  | 66.67 µM, 24 h | relative to: untreated control | cell viability | 94.9 ± 11% |
| CC(C)CC(=O)OC[C@H]1O[C@@](C#N)(c2ccc3c(N)ncnn23)[C@H](O)[C@@H]1O | ABCB1 (Homo sapiens, UniProt P08183) | apical to basolateral transport | Caco-2 | 90 µM, 2 h, with: verapamil 100 µM |  | recovery | 70% |
| C[C@]1(CO)Cc2ncn(-c3ccc(C#N)c(Cl)c3)c2C(=O)O1 |  |  | healthy Japanese adults, plasma | 80 mg single dose |  | Cmax | 3.52 µM |
| CC(=O)OC[C@H]1O[C@@H](Oc2cc(O)cc3cc4oc(C)cc(=O)c4c(O)c23)[C@H](O)[C@@H](O)[C@@H]1O | HK-2 co-cultured with HepaRG | MTT |  | 33.33 µM, 24 h | relative to: untreated control | cell viability | 132 ± 12% |
| Cc1cc(C(=O)NC(C)(C)COc2cccc3c2C(N)=NS(=O)(=O)N3)cc(C)n1 | Salmonella typhimurium | Ames test, initial | TA1535 | 5000 µg/plate | relative to: solvent control | revertant ratio | 1.3 |
| CCc1ccc(CC/C=C/c2ccc3c(c2)C(=O)CC3)cc1 |  |  | Sprague-Dawley rat, female, blood | oral, 30 mg/kg/day, 14 days |  | mean platelet volume | 10.7 fL |
| CC(=O)N1CCC(C(=O)N2CCN3C(=O)c4cc(-c5ccccc5)ccc4NC(=O)C3C2)CC1 (stereo not drawn) | Salmonella typhimurium |  | TA100 | 15.8 µg/plate, without S9 |  | revertants per plate | 88 |
| COc1cc2c(Oc3ccc4[nH]c(C)cc4c3F)ccnc2cc1OCC1(N)CC1 |  |  | paediatric recurrent refractory sarcoma | 8 mg |  | grade 1 or 2 Diarrhoea | 0% |
| CO[C@H]1C[C@@H]2CC[C@@H](C)[C@@](O)(O2)C(=O)C(=O)N2CCCC[C@H]2C(=O)O[C@H]([C@H](C)C[C@@H]2CC[C@@H](OC(=O)NCCOCCOCCOCCOCCOCCOCCOCCOCCC(=O)N3CCc4cc(Cn5nc(-c6ccc7oc(N)nc7c6)c6c(N)ncnc65)ccc4C3)[C@H](OC)C2)C[C@@H](O)[C@H](C)/C=C(\C)[C@@H](O)[C@@H](OC)C(=O)[C@H](C)C[C@H](C)/C=C/C=C/C=C/1C |  | phase 1 dose escalation | advanced solid tumour patients | intravenous, 12 mg weekly, grade ≥3 |  | any TEAE incidence | 66.7% |
| O=c1ccc2ccccc2o1 | NHEK |  | keratinocyte growth medium | concentration not given, 24 h, ER stress panel |  | CHOP induction, chance of response | 20.8% |
| [Cl-].[Cl-].[Pt+2].[Ru+2].c1ccc(-c2nc3cc4ccccc4cc3nc2-c2ccccn2)nc1.c1cnc2c(c1)ccc1cccnc12.c1cnc2c(c1)ccc1cccnc12 | Danio rerio |  | embryos | 60 µM, 96 h |  | survival rate | 70 ± 2% |
| O=C1c2ccccc2C(=O)c2ccccc21 | HK-2 co-cultured with HepaRG | MTT |  | 66.67 µM, 48 h | relative to: untreated control | viability | 53.4 ± 4.56% |

Repeated from above:
| Compound | target or system | test | test system | conditions | how to read | measurement | result |
| --- | --- | --- | --- | --- | --- | --- | --- |
| COc1cc2c(Oc3ccc4[nH]c(C)cc4c3F)ccnc2cc1OCC1(N)CC1 |  |  | paediatric recurrent refractory sarcoma | 8 mg |  | grade 1 or 2 Diarrhoea | 0% |
